Assay results gathered from unrelated publications.
± gives the spread as reported.

Structure (SMILES) | target or system | assay | test system | setting | quantity | result
CCN(C(=O)c1cc(F)ccc1Oc1nncnc1N1CCC2(C1)CN(C(CCCN(C)CCOC)C(C)C)C2)C(C)C (stereo not drawn) | OCI-AML-3 (NPM1c) | mRNA level, QuantiGene multiplex, item: PBX3 | – | concentration not given | IC50 | > 2820 nM
C=CC(=O)N1CCCC(n2c(=O)c3ncccc3n(Cc3ccc(Oc4ccccc4)cc3)c2=O)C1 (stereo not drawn) | VAL | cell proliferation, MTT | – | 72 h | IC50 | 12000 nM
C[n+]1cccc2cc(/C=N/NC(=O)N/N=C/c3ccc4c(ccc[n+]4C)c3)ccc21 | 22CTA telomeric G4-DNA antiparallel | FRET melting | – | 1 µM, K10 buffer, DNA 0.2 µM, with: ds26 10 µM | ΔTm | 2 ± 0.9 °C
CNS(=O)(=O)Nc1nccc(Cc2c(C)c3ccc(Oc4ncccc4F)cc3oc2=O)c1F | PA-1 | cell viability | – | 7 days | IC50 | > 1000 nM
CN1CCC(N[C@H]2CCc3[nH]c4c(C(N)=O)ccc(-c5ccccc5Cl)c4c3C2)CC1 | K562 parental | cell proliferation | – | – | IC50 | 735 nM
C=C(NC(=O)c1csc(-c2nc3c(cc2O)-c2nc(cs2)C(=O)NC(C(C)O)C(=O)NC(=C(C)OC)c2nc(cs2)C(=O)NC2c4nc(cs4)C(=O)NC(COC(=O)c4c5c6c(cccc6n4O)COC(=O)C(OC4CC(C)(O)C(N(C)C)C(C)O4)C2OC5)c2nc-3cs2)n1)C(N)=O (stereo not drawn) | – | – | ICR mice, Streptococcus pneumoniae ATCC 49169 infected, immunocompromised, blood | intravenous, 4 mg/kg twice daily | AUC(0-t) | 0.156 µM·h
Cc1c(C)c2cccnc2c2ncccc12.Cc1ccc2c(Cl)cc(Cl)c([O-])c2n1.Cc1ccc2c(Cl)cc(Cl)c([O-])c2n1.[Co+2] | BEL-7404 | cell growth or viability, MTT | – | 48 h | IC50 | 3290 nM
NC(=O)c1ccc(-c2ccccc2Cl)c2c3c([nH]c12)CC[C@H](N)C3 | MINO | cell growth or viability | – | – | IC50 | 28.7 nM
O=C(Nc1ccc(C2CCCCC2)cc1)C1(N2CCOCC2)CC1 | – | liver microsome stability | mouse liver microsomes | 1 µM | hepatic clearance | 81 mL/min/kg
CC(C)c1ccc(N(C)c2ccc3c(c2)OCC[C@H]3CNc2cnccc2C(=O)O)cc1 | Calu-1 | cell growth or viability, ATP luminescence | – | 7 days | IC50 | ≥ 10000 nM
C[n+]1cccc2cc(/C=N/NC(=O)c3cccc(C(=O)N/N=C/c4ccc5c(ccc[n+]5C)c4)n3)ccc21 | 22CTA telomeric G4-DNA antiparallel | FRET melting | – | 1 µM, K10 buffer, DNA 0.2 µM | ΔTm | 15.2 ± 0.3 °C
CCOc1cncc(-c2ccc(NC(=O)C3(c4ccnc(NS(=O)(=O)C5CC5)n4)CCOCC3)nc2)n1 | OVCAR-8 | cell proliferation, CellTiter-Glo | – | 72 h | IC50 | 93 nM

Excerpt of the above:
Structure (SMILES) | target or system | assay | test system | setting | quantity | result
Cc1c(C)c2cccnc2c2ncccc12.Cc1ccc2c(Cl)cc(Cl)c([O-])c2n1.Cc1ccc2c(Cl)cc(Cl)c([O-])c2n1.[Co+2] | BEL-7404 | cell growth or viability, MTT | – | 48 h | IC50 | 3290 nM
